Experimental data from different studies.
± marks the error that the study gave.
Technique: steady-state kinetics
B1: enzyme (Tetranychus urticae, UniProt T1KUK4); chain MNPETMNENGKSLKILFTALFGPGHLNACLGIGSLLRKRGHQIYFAHFPRHRATIEKHGFLFISLLDYAEPEFPIVDMLPDIGIIAKFAFERMHKLTPLELFRHASGKHTFAGMVNGSKGENYAMMKIVKEYKPDVCLADYLFNMPWMFTVDCPVIPVKSVNPIELYNGPPALTGCSIHDPPSVREEIEQLARKSELELESELEKLFAHFNVPLVSYNYAQQLGIYIYPGPLDYKELGSPKENWVRLDSSIRSTEISNFELPEKLKDKPGKLIYVSMGSLASAVTELLTMILTPLANSPHRFIVSTGPNGDSIKLYDNMWGDKFINQVALLPKVDLFITHGGSNSLIEGLTAGKPLIAIPQFGDQLDNAQRIADLGLGVRLNLHEFSGEKLLKAIEDVLNDEKINANVARVSEELKKSDSKDKVISLIEKLARDKKL
B2: oxdC T165V (Bacillus subtilis, UniProt O34714); chain MKKQNDIPQPIRGDKGATVKIPRNIERDRQNPDMLVPPETDHGTVSNMKFSFSDTHNRLEKGGYAREVTVRELPISENLASVNMRLKPGAIRELHWHKEAEWAYMIYGSARVTIVDEKGRSFIDDVGEGDLWYFPSGLPHSIQALEEGAEFLLVFDDGSFSENSVFQLTDWLAHTPKEVIAANFGVTKEEISNLPGKEKYIFENQLPGSLKDDIVEGPNGEVPYPFTYRLLEQEPIESEGGKVYIADSTNFKVSKTIASALVTVEPGAMRELHWHPNTHEWQYYISGKARMTVFASDGHARTFNYQAGDVGYVPFAMGHYVENIGDEPLVFLEIFKDDHYADVSLNQWLAMLPETFVQAHLDLGKDFTDVLSKEKHPVVKKKCSK
B3: hflX K210A/N207A (Escherichia coli, UniProt P25519); chain MFDRYDAGEQAVLVHIYFTQDKDMEDLQEFESLVSSAGVEALQVITGSRKAPHPKYFVGEGKAVEIAEAVKATGASVVLFDHALSPAQERNLERLCECRVIDRTGLILDIFAQRARTHEGKLQVELAQLRHLATRLVRGWTHLERQKGGIGLRGPGETQLETDRRLLRNRIVQIQSRLERVEKQREQGRQSRIKADVPTVSLVGYTAAGASTLFNRITEARVYAADQLFATLDPTLRRIDVADVGETVLADTVGFIRHLPHDLVAAFKATLQETRQATLLLHVIDAADVRVQENIEAVNTVLEEIDAHEIPTLLVMNKIDMLEDFEPRIDRDEENKPNRVWLSAQTGAGIPQLFQALTERLSGEVAQHTLRLPPQEGRLRSRFYQLQAIEKEWMEEDGSVSLQVRMPIVDWRRLCKQEPALIDYLI
B4: enzyme (Acinetobacter baumannii, UniProt D0CBC8); chain MALVLDGRALAKQIEENLLVRVEALKAKTGRTPILATILVGDDGASATYVRMKGNACRRVGMDSLKIELPQETTTEQLLAEIEKLNANPDVHGILLQHPVPAQIDERACFDAISLAKDVDGVTCLGFGRMAMGEAAYGSATPAGIMTILKENNIEIAGKHAVVVGRSAILGKPMAMMLLQANATVTICHSRTQNLPELVKQADIIVGAVGKAELIQKDWIKQGAVVVDAGFHPRDGGGVGDIQLQGIEEIASAYTPVPGGVGPMTITTLIRQTVEAAEKALG
B5: SUOX R529M/V531M/Y400N (Homo sapiens, UniProt P51687); chain ESTHIYTKEEVSSHTSPETGIWVTLGSEVFDVTEFVDLHPGGPSKLMLAAGGPLEPFWALYAVHNQSHVRELLAQYKIGELNPEDKVAPTVETSDPYADDPVRHPALKVNSQRPFNAEPPPELLTENYITPNPIFFTRNHLPVPNLDPDTYRLHVVGAPGGQSLSLSLDDLHNFPRYEITVTLQCAGNRRSEMTQVKEVKGLEWRTGAISTARWAGARLCDVLAQAGHQLCETEAHVCFEGLDSDPTGTAYGASIPLARAMDPEAEVLLAYEMNGQPLPRDHGFPVRVVVPGVVGARHVKWLGRVSVQPEESYSHWQRRDNKGFSPSVDWETVDFDSAPSIQELPVQSAITEPRDGETVESGEVTIKGYAWSGGGRAVIRVDVSLDGGLTWQVAKLDGEEQRPRKAWAWRLWQLKAPVPAGQKELNIVCKAVDDGYNVQPDTVAPIWNLMGMLSNAWHRVHVYVSP
B6: BaiA2 (Clostridium scindens, UniProt P19337); chain MNLVQDKVTIITGGTRGIGFAAAKIFIDNGAKVSIFGETQEEVDTALAQLKELYPEEEVLGFAPDLTSRDAVMAAVGQVAQKYGRLDVMINNAGITSNNVFSRVSEEEFKHIMDINVTGVFNGAWCAYQCMKDAKKGVIINTASVTGIFGSLSGVGYPASKASVIGLTHGLGREIIRKNIRVVGVAPGVVNTDMTNGNPPEIMEGYLKALPMKRMLEPEEIANVYLFLASDLASGITATTVSVDGAYRP
B7: Pck1 (Rattus norvegicus, UniProt P07379); chain MPPQLHNGLDFSAKVIQGSLDSLPQEVRKFVEGNAQLCQPEYIHICDGSEEEYGRLLAHMQEEGVIRKLKKYDNCWLALTDPRDVARIESKTVIITQEQRDTVPIPKSGQSQLGRWMSEEDFEKAFNARFPGCMKGRTMYVIPFSMGPLGSPLAKIGIELTDSPYVVASMRIMTRMGTSVLEALGDGEFIKCLHSVGCPLPLKKPLVNNWACNPELTLIAHLPDRREIISFGSGYGGNSLLGKKCFALRIASRLAKEEGWLAEHMLILGITNPEGKKKYLAAAFPSACGKTNLAMMNPTLPGWKVECVGDDIAWMKFDAQGNLRAINPENGFFGVAPGTSVKTNPNAIKTIQKNTIFTNVAETSDGGVYWEGIDEPLAPGVTITSWKNKEWRPQDEEPCAHPNSRFCTPASQCPIIDPAWESPEGVPIEGIIFGGRRPAGVPLVYEALSWQHGVFVGAAMRSEATAAAEHKGKVIMHDPFAMRPFFGYNFGKYLAHWLSMAHRPAAKLPKIFHVNWFRKDKNGKFLWPGFGENSRVLEWMFGRIEGEDSAKLTPIGYVPKEDALNLKGLGDVNVEELFGISKEFWEKEVEEIDKYLEDQVNADLPYEIERELRALKQRISQM
B8: ltaE H83F (Escherichia coli, UniProt P75823); chain MIDLRSDTVTRPSRAMLEAMMAAPVGDDVYGDDPTVNALQDYAAELSGKEAAIFLPTGTQANLVALLSHCERGEEYIVGQAAFNYLFEAGGAAVLGSIQPQPIDAAADGTLPLDKVAMKIKPDDIHFARTKLLSLENTHNGKVLPREYLKEAWEFTRERNLALHVDGARIFNAVVAYGCELKEITQYCDSFTICLSKGLGTPVGSLLVGNRDYIKRAIRWRKMTGGGMRQSGILAAAGIYALKNNVARLQEDHDNAAWMAEQLREAGADVMRQDTNMLFVRVGEENAAALGEYMKARNVLINASPIVRLVTHLDVSREQLAEVAAHWRAFLAR
B9: enzyme (Comamonas testosteroni, UniProt B7WQT1); chain MMTHEENELLCRVEGDAPMGRLMRRHWTPICLVEEVGEPDGTPVKARAFGEDLVVFRDSEGRVGVMDEYCPHRRASLVYGRNEEGGLRCLYHGWKMDVDGNVLEMASEPAASGMVDKVKHTAYPTQEWAGMVWAYMGPKETMPEFLPPAWAPTADTRVSIAKVLLPCNWAQILEGAIDSAHSSSLHSSDMVPARVDGAKATDKTWLRPSTDKAPRMQVQRTGYGFRYAALRRPLSNAAENDYVRSTVFVAPATALIPPNNLYNVANINVPMDDTNTAFYFIAWGHPSQTPETETWRKFLRQTVGVDLDQNYRPLRNEANKFWQDRNAMKAGNFTGITGFPNQDVAMWLTMGPIADRTHDRLGASDLAIVEFRKQMLDAVKAFEQGAPAIGTGVEAATPTVCSFQAIVPKTTDWRTYDAHYVWLDGQDRPEFEPSYSVKS
Sequence of UniProt P45370 (whole entry, looked up): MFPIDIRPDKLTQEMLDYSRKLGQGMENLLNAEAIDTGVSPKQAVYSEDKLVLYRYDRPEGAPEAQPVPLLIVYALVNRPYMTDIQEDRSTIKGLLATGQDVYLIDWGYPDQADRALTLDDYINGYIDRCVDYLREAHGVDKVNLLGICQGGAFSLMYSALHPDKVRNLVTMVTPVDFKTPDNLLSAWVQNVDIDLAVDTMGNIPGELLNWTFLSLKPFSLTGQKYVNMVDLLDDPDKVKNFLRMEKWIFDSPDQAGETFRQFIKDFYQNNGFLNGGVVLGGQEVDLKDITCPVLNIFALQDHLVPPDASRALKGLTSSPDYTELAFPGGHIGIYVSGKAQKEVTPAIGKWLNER
Sequence of UniProt Q8C0L6 (whole entry, looked up): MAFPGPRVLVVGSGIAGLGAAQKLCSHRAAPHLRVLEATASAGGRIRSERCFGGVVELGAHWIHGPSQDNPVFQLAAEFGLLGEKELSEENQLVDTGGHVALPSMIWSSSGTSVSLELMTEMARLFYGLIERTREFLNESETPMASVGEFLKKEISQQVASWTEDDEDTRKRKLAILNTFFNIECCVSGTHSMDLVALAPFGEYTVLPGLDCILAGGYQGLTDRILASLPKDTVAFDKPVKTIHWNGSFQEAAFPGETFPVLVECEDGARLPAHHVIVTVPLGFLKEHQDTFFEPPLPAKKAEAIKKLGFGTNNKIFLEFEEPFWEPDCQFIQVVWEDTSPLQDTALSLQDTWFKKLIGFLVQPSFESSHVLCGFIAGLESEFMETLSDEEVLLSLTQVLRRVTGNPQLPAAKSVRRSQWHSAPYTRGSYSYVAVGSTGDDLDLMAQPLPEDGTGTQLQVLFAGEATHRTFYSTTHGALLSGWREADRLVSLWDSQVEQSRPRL
Sequence of UniProt P22106 (whole entry, looked up): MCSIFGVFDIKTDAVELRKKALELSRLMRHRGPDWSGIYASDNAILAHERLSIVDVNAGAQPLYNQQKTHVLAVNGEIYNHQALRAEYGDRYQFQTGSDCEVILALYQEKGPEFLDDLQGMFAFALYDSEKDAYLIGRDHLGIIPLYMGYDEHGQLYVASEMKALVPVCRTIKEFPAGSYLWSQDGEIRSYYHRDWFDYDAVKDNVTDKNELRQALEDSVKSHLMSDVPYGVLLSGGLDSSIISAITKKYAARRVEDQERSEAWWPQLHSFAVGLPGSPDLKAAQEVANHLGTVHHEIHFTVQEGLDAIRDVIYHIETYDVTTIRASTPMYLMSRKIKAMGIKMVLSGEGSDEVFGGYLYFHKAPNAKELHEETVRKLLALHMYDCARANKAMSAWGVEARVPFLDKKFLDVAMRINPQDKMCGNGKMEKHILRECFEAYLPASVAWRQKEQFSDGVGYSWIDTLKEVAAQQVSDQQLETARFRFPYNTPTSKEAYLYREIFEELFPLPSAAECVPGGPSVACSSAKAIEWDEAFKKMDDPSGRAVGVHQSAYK

With `Paox (Mus musculus, UniProt Q8C0L6)` the kcat/Km was 33000 ± 2000 M⁻¹ s⁻¹ (c1ccc(CNCCCCNCc2ccccc2)cc1; pH 8.6, 30 °C).
For `B1 (enzyme)`, the kcat/Km was 1900 ± 700 M⁻¹ s⁻¹ (O=c1ccn([C@@H]2O[C@H](CO[P@@](=O)(O)O[P@@](=O)(O)O[C@H]3O[C@H](CO)[C@@H](O)[C@H](O)[C@H]3O)[C@@H](O)[C@H]2O)c(=O)[nH]1; pH 7.8).
For `B2 (oxdC T165V)`, the kcat/Km was 70 M⁻¹ s⁻¹ (O=C(O)C(=O)O; pH 4.2, 25 °C).
For `B3 (hflX K210A/N207A)`, the kcat/Km was 3.67 M⁻¹ s⁻¹ (Nc1nc2c(ncn2[C@@H]2O[C@H](COP(=O)(O)OP(=O)(O)OP(=O)(O)O)[C@@H](O)[C@H]2O)c(=O)[nH]1; pH 8, 37 °C, added: MgCl2 5 mM, NaCl 200 mM).
`protein (Allochromatium vinosum, UniProt P45370)` gave a kcat/Km of 4.62e+06 M⁻¹ s⁻¹ (C[C@@H](O)CC(=O)SCCNC(=O)CCNC(=O)[C@H](O)C(C)(C)COP(=O)(O)OP(=O)(O)OC[C@H]1O[C@@H](n2cnc3c(N)ncnc32)[C@H](O)[C@@H]1OP(=O)(O)O; pH 7.8, 30 °C).
With `B4 (enzyme)` the kcat/Km was 1.1e+06 M⁻¹ s⁻¹ (NC(=O)c1ccc[n+]([C@@H]2O[C@H](COP(=O)(O)OP(=O)(O)OC[C@H]3O[C@@H](n4cnc5c(N)ncnc54)[C@H](OP(=O)(O)O)[C@@H]3O)[C@@H](O)[C@H]2O)c1; pH 7.3, 27 °C, cofactor varied).
The kcat/Km of `B5 (SUOX R529M/V531M/Y400N)` is reported as 35000 M⁻¹ s⁻¹ (O=[N+]([O-])O; pH 7, 25 °C, added: dithionite-reduced methyl viologen).
The kcat/Km of `B6 (BaiA2)` is reported as 8700 M⁻¹ s⁻¹ (C[C@H](CCC(=O)SCCNC(=O)CCNC(=O)[C@H](O)C(C)(C)COP(=O)(O)OP(=O)(O)OC[C@H]1O[C@@H](n2cnc3c(N)ncnc32)[C@H](O)[C@@H]1OP(=O)(O)O)[C@H]1CC[C@H]2[C@@H]3[C@H](O)C[C@@H]4C[C@H](O)CC[C@]4(C)[C@H]3CC[C@]12C; pH 8.7, 37 °C, added: NAD+).
With `B7 (Pck1)` the kcat/Km was 790000 M⁻¹ s⁻¹ (Nc1nc2c(ncn2[C@@H]2O[C@H](COP(=O)(O)OP(=O)(O)OP(=O)(O)O)[C@@H](O)[C@H]2O)c(=O)[nH]1; pH 7.5, 25 °C, added: OAA, GTP).
The kcat/Km of `B8 (ltaE H83F)` is reported as 8.83 M⁻¹ s⁻¹ (C[C@H](O)[C@H](N)C(=O)O; pH 7, 30 °C, potassium phosphate 20 mM, retro-aldol cleavage, added: PLP 500 µM).
`asnB (Escherichia coli, UniProt P22106)` gave a kcat/Km of 1200 M⁻¹ s⁻¹ (N[C@@H](CC(=O)O)C(=O)O; pH 8, 37 °C, apparent, added: L-glutamine 20 mM).
With `B9 (enzyme)` the kcat/Km was 22000 ± 4000 M⁻¹ s⁻¹ (O=C(O)c1ccc(C(=O)O)cc1; pH 8, 25 °C, apparent).

Repeated from above:
For `B3 (hflX K210A/N207A)`, the kcat/Km was 3.67 M⁻¹ s⁻¹ (Nc1nc2c(ncn2[C@@H]2O[C@H](COP(=O)(O)OP(=O)(O)OP(=O)(O)O)[C@@H](O)[C@H]2O)c(=O)[nH]1; pH 8, 37 °C, added: MgCl2 5 mM, NaCl 200 mM).
